Experimental data collected from several papers.
Lines come from different studies, so protocols differ. ± marks the error that the study gave.
U2AF2: U2AF2 148-342 (Homo sapiens, UniProt P26368)
UniProt P26368, sequence (whole entry, looked up): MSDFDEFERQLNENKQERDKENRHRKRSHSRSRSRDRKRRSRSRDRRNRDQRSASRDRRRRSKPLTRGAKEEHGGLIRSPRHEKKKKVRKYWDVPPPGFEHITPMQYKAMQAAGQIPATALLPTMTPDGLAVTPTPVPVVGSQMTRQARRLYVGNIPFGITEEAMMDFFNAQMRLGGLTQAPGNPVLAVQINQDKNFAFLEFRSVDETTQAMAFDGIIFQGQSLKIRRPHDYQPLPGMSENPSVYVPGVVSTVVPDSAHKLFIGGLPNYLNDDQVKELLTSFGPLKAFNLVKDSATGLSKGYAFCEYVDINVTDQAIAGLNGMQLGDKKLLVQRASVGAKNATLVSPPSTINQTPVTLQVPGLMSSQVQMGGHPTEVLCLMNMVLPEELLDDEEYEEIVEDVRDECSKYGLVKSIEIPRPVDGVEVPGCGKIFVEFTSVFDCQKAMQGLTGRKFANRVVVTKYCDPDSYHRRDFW
B1: Aralar1, human; sequence looked up; chain AVKVQTTKRGDPHELRNIFLQYASTEVDGERYMTPEDFVQRYLGLYNDPNSNPKIVQLLAGVADQTKDGLISYQEFLAFESVLCAPDSMFIVAFQLFDKSGNGEVTFENVKEIFGQTIIHHHIPFNWDCEFIRLHFGHNRKKHLNYTEFTQFLQELQLEHARQAFALKDKSKSGMISGLDFSDIMVTIRSHMLTPFVEENLVSAAGGSISHQVSFSYFNAFNSLLNNMELVRKIYSTLAGTRKDVEVTKEEFAQSAIRYGQVTPLEIDILYQLADLYNASGRLTLADIERIAPLAEGALPYNLAELQRQQSPGLGRPIWLQIAESAYRFTLGSVAGAVGATAVYPIDLVKTRMQNQRGSGSVVGELMYKNSFDCFKKVLRYEGFFGLYRGLIPQLIGVAPEKAIKLTVNDFVRDKFTRRDGSVPLPAEVLAGGCAGGSQVIFTNPLEIVKIRLQVAGEITTGPRVSALNVLRDLGIFGLYKGAKACFLRDIPFSAIYFPVYAHCKLLLADENGHVGGLNLLAAGAMAGVPAASLVTPADVIKTRLQVAARAGQTTYSGVIDCFRKILREEGPSAFWKGTAARVFRSSPQFGVTLVTYELLQRWFYIDFGGLKPAGSEPTPKSRIADLPPANPDHIGGYRLATATFAGIENKFGLYLPKFKSPSVAVVQPKAAVAATQ
B2: proteasome subunit alpha-3 (human); sequence looked up; chain SSIGTGYDLSASTFSPDGRVFQVEYAMKAVENSSTAIGIRCKDGVVFGVEKLVLSKLYEEGSNKRLFNVDRHVGMAVAGLLADARSLADIAREEASNFRSNFGYNIPLKHLADRVAMYVHAYTLYSAVRPFGCSFMLGSYSVNDGAQLYMIDPSGVSYGYWGCAIGKARQAAKTEIEKLQMKEMTCRDIVKEVAKIIYIVHDEVKDKAFELELSWVGELTNGRHEIVPKDIREEAEKYAKESLKEEDESDDDNM
B3: Ras suppressor protein 1 (human); sequence looked up; chain SKSLKKLVEESREKNQPEVDMSDRGISNMLDVNGLFTLSHITQLVLSHNKLTMVPPNIAELKNLEVLNFFNNQIEELPTQISSLQKLKHLNLGMNRLNTLPRGFGSLPALEVLDLTYNNLSENSLPGNFFYLTTLRALYLSDNDFEILPPDIGKLTKLQILSLRDNDLISLPKEIGELTQLKELHIQGNRLTVLPPELGNLDLTGQKQVFKAENNPWVTPIADQFQLGVSHVFEYIRSETYKYLYGRHMQANPEPPKKNNDKSKKISRKPLAAKNR
B4: human RECQ1; sequence looked up; chain MASVSALTEELDSITSELHAVEIQIQELTERQQELIQKKKVLTKKIKQCLEDSDAGASNEYDSSPAAWNKEDFPWSGKVKDILQNVFKLEKFRPLQLETINVTMAGKEVFLVMPTGGGKSLCYQLPALCSDGFTLVICPLISLMEDQLMVLKQLGISATMLNASSSKEHVKWVHAEMVNKNSELKLIYVTPEKIAKSKMFMSRLEKAYEARRFTRIAVDEVHCCSQWGHDFRPDYKALGILKRQFPNASLIGLTATATNHVLTDAQKILCIEKCFTFTASFNRPNLYYEVRQKPSNTEDFIEDIVKLINGRYKGQSGIIYCFSQKDSEQVTVSLQNLGIHAGAYHANLEPEDKTTVHRKWSANEIQVVVATVAFGMGIDKPDVRFVIHHSMSKSMENYYQESGRAGRDDMKADCILYYGFGDIFRISSMVVMENVGQQKLYEMVSYCQNISKCRRVLMAQHFDEVWNSEACNKMCDNCCKDSAFERKNITEYCRDLIKILKQAEELNEKLTPLKLIDSWMGKGAAKLRVAGVVAPTLPREDLEKIIAHFLIQQYLKEDYSFTAYATISYLKIGPKANLLNNEAHAITMQVTKSTQNSFRAESSQTCHSEQGDKKMEEKNSGNFQKKAANMLQQSGSKNTGAKKRKIDDA

The cholesterol decrease of `methyl-β-cyclodextrin` is reported as about 52% (HEK293 stably expressing hERG1a; Amplex Red; 1 mM, 2 h, 37 °C).
`catalase` — result for protein level: “increased” (LS174T; western blot, measured: p27; concentration not given, 48 h).
For `EVDPIGLEF`, the GFP-positive cells was 0.624% (Jurkat expressing engineered TCR; NFAT-eGFP reporter, fluorescence microscopy; peptide; concentration not given, HLA-A*01:01 on EL4 cells).
The phosphorylation level of `Peginesatide` is reported as 8.1 fold (UT7/EPO; tyrosine phosphorylation, LC-MS/MS phosphoproteomics, trypsin, measured: CBL tyrosine 700; 10 nM, 15 min, with: 10 U/mL EPO; relative to: vehicle).
With `HVDPIGMMY` the GFP-positive cells was 0.416% (Jurkat expressing engineered TCR; NFAT-eGFP reporter, fluorescence microscopy; peptide; concentration not given, HLA-A*01:01 on EL4 cells).
`UAUUUUUCC (ssRNA)` gave a Kd of 1.46 µM (U2AF2; sequencing of bound RNA; RNA; motif only).
`B1 (Aralar1, human)` — result for “log2 fold change”: -0.38 (CYB5R4 knockout human cells; PP4 interaction, 3xFLAG-PP4C IP-MS; concentration not given; relative to: CYB5R4 KO over parental).
For `YLEPVYLGF`, the GFP-positive cells was 0.541% (Jurkat expressing engineered TCR; NFAT-eGFP reporter, fluorescence microscopy; peptide; concentration not given, HLA-A*01:01 on EL4 cells).
For `B2 (proteasome subunit alpha-3)`, “log2 fold change” read 0.75 (CYB5R4 knockout human cells; PP6 interaction, 3xFLAG-PP6C IP-MS; concentration not given; relative to: CYB5R4 KO over parental).
`TRAIL` gave a viability of 31.6% (EA.hy926; CellTiter-Glo; concentration not given).
With `GUUUUCAUU (ssRNA)` the Kd was 11.3 µM (U2AF2; sequencing of bound RNA; RNA; motif only).
With `EVDPIGHLY` the GFP-positive cells was 1.91% (Jurkat NFAT-eGFP expressing engineered TCR; NFAT reporter gene; peptide; concentration not given, HLA-A*01:01 presentation).
For `B3 (Ras suppressor protein 1)`, “log2 fold change” read -1.29 (CYB5R4 knockout human cells; PP4 interaction, 3xFLAG-PP4C IP-MS; concentration not given; relative to: CYB5R4 KO over parental).
`YEQDPWGVKWWY`: mRNA level “decreased” (mouse bone marrow-derived macrophages; qPCR, measured: Cd206; peptide; concentration not given, with: IL-4).
Under “log2 fold change”, `human EPHA2` is recorded as -1.92 (CYB5R4 knockout human cells; PP4 interaction, 3xFLAG-PP4C IP-MS; concentration not given; relative to: CYB5R4 KO over parental).
`HQDPIGLKY` has a GFP-positive cells of 0.489% (Jurkat expressing engineered TCR; NFAT-eGFP reporter, fluorescence microscopy; peptide; concentration not given, HLA-A*01:01 on EL4 cells).
`human glutamate dehydrogenase 2` — result for “log2 fold change”: -0.81 (CYB5R4 knockout human cells; PP4 interaction, 3xFLAG-PP4C IP-MS; concentration not given; relative to: CYB5R4 KO over parental).
`MTVCNASQRQAHAQATAVSL` gave a selectivity ratio of 9.4 ± 1.2 (H1666 lung adenocarcinoma/BAC; phage binding output/input; peptide; relative to: control phage).
`epoetin alfa` gave a mRNA level of 2.8 fold (UT7/EPO; microarray, measured: PMP22 mRNA (probe set 243050_at); 5 U/mL, 90 min; relative to: vehicle).
`B4 (human RECQ1)`: “log2 fold change” -2.65 (CYB5R4 knockout human cells; PP6 interaction, 3xFLAG-PP6C IP-MS; concentration not given; relative to: CYB5R4 KO over parental).
